Results from different studies.
Parts stem from different laboratories: compare values within a part only.

Sequences of proteins named here, by UniProt entry; tags and fusion partners are left off.
UniProt P21802, whole entry A648T, looked up: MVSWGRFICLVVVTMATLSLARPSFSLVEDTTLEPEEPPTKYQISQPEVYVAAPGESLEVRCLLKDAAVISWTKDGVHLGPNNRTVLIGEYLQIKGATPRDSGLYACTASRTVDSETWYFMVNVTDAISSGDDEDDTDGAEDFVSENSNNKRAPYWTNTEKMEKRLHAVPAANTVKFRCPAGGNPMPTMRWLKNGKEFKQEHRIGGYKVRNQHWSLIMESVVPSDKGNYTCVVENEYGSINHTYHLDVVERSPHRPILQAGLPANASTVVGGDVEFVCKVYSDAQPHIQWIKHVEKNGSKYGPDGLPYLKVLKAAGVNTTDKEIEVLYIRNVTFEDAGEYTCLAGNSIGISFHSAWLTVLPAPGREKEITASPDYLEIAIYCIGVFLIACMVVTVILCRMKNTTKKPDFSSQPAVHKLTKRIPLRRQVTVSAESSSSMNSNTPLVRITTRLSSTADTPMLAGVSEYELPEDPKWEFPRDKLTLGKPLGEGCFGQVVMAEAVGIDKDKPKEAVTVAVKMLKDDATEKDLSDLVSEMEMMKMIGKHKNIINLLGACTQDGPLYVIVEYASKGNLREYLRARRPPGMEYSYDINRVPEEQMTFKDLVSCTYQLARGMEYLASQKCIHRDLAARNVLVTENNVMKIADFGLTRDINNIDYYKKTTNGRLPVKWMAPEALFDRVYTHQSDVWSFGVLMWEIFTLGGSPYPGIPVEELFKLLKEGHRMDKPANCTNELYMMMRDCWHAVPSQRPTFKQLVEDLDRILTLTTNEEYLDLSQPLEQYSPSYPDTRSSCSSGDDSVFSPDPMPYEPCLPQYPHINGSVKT
UniProt Q00526, whole entry: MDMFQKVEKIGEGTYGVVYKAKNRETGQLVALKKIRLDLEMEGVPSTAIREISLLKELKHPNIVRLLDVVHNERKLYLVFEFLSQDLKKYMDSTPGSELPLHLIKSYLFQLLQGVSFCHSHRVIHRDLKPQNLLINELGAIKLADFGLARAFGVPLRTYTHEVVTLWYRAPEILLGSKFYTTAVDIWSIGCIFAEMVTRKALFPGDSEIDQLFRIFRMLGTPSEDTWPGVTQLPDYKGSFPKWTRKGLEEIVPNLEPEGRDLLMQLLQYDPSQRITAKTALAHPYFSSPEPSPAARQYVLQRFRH
UniProt Q13164, whole entry: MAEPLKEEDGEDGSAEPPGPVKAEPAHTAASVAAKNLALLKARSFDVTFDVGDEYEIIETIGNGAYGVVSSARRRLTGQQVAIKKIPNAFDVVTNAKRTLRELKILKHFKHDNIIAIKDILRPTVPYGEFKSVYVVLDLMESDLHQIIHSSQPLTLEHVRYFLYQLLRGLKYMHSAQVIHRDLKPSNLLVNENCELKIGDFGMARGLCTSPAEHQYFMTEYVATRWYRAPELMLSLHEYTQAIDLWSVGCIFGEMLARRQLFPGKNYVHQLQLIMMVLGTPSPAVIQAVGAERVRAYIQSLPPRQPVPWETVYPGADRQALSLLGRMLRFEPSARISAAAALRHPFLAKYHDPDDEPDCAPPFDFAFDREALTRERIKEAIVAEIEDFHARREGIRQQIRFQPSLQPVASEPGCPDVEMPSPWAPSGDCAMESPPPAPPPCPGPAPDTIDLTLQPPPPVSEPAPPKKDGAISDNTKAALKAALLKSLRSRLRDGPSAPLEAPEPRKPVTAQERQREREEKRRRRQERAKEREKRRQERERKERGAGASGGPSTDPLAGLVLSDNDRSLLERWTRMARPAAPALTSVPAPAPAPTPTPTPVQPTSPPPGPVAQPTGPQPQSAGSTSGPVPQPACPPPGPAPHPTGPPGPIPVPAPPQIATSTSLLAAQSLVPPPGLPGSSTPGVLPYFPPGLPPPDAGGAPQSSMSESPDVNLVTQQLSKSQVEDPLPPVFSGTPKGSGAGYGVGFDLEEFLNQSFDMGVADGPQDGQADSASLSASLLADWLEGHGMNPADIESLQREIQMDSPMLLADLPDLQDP
UniProt P19525, whole entry: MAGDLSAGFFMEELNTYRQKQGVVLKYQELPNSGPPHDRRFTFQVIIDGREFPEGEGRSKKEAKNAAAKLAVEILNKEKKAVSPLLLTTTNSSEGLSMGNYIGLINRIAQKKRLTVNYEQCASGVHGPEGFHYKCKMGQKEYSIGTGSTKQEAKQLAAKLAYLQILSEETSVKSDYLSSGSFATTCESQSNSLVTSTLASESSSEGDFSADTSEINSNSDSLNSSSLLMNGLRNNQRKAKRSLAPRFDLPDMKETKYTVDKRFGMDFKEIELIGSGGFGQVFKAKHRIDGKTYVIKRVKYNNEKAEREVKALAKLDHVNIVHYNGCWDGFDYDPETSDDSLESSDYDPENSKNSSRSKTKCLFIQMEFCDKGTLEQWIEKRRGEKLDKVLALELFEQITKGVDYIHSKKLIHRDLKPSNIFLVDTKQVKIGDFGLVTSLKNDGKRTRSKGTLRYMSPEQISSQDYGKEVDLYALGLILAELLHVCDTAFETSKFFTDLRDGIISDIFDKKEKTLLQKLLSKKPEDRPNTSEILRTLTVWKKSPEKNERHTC
UniProt P04150, whole entry: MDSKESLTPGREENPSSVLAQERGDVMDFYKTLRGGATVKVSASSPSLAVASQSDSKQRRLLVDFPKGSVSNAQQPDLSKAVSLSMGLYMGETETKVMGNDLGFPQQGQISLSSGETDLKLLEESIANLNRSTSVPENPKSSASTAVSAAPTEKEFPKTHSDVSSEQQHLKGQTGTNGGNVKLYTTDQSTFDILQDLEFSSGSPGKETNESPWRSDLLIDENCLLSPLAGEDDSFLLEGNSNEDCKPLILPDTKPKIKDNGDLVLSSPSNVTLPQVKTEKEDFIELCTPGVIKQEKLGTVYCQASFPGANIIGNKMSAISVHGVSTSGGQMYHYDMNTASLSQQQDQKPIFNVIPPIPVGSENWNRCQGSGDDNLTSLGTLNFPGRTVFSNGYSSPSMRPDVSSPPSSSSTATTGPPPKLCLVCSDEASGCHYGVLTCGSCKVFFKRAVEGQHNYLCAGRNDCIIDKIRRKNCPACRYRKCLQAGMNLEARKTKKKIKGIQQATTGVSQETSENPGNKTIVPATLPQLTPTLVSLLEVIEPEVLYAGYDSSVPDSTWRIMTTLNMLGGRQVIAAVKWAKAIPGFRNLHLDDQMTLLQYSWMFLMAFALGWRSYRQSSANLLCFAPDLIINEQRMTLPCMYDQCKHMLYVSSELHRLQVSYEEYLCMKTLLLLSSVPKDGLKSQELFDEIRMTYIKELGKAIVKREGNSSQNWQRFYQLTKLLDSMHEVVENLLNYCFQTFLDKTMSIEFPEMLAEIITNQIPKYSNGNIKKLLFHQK
UniProt P00519, whole entry: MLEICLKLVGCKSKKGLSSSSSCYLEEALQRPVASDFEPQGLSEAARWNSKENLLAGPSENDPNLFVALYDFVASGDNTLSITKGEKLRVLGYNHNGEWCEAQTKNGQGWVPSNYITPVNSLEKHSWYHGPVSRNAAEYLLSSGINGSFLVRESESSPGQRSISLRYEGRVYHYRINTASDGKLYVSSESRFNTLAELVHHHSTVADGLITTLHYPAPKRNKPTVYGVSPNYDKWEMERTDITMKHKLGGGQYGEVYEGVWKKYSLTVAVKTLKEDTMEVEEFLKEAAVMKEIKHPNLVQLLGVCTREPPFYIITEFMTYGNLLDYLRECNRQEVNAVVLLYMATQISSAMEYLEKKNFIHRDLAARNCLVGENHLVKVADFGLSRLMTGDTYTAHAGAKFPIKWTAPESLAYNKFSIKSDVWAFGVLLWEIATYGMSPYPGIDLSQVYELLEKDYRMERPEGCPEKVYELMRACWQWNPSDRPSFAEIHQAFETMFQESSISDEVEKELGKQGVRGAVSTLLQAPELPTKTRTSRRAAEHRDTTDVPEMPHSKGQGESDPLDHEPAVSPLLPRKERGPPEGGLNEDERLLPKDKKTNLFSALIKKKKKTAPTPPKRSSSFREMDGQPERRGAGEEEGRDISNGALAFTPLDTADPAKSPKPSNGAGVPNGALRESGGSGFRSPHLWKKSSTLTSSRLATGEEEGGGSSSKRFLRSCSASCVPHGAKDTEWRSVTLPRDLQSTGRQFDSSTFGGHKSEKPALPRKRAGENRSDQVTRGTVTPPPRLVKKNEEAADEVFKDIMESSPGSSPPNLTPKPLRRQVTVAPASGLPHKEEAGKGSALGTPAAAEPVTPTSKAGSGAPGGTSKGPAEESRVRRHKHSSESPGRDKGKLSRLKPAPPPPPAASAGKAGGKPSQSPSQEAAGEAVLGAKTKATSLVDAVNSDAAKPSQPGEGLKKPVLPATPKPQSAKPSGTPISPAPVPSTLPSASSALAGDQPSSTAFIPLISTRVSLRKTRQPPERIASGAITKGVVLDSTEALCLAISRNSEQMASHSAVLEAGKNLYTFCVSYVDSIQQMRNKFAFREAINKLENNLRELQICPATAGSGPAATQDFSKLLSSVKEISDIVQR
UniProt P09769, whole entry: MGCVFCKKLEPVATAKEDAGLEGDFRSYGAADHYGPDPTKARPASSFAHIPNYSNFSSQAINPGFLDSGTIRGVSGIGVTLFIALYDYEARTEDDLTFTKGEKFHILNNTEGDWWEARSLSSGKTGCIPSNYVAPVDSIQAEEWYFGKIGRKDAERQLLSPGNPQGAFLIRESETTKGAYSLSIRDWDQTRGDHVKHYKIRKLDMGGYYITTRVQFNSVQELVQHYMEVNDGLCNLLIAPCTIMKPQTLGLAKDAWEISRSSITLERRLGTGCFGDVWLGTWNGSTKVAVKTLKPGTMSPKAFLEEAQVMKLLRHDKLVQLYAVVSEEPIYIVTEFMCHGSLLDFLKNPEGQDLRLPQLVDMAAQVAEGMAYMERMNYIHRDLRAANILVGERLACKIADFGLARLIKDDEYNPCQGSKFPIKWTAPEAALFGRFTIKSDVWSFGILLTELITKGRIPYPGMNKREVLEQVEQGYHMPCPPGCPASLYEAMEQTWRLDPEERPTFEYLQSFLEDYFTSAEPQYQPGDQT

Block 1
Compound: CCN1CCN(Cc2ccc(NC(=O)c3ccc(C)c(/C=C/c4cnc5[nH]ccc5c4OC)c3)cc2C(F)(F)F)CC1
Mode: inhibitor
Method: cell-based kinome screen
Concentration: 5 µM
| target | test | test system | how to read | log2 fold change |
| --- | --- | --- | --- | --- |
| FGFR2 (Homo sapiens, UniProt P21802, A648T) |  | human cells | baseline: untreated | -0.311 |
| CDK3 (Homo sapiens, UniProt Q00526) |  |  | baseline: vehicle control | -0.017 |
| MAPK7 (Homo sapiens, UniProt Q13164) |  | human cells | baseline: vehicle | 0.97 |
| PRKACA (Homo sapiens, UniProt P17612) | kinase activity |  | baseline: vehicle | 0.245 |
| Interferon-induced, double-stranded RNA-activated protein kinase, with CDC37 (EIF2AK2, Homo sapiens, UniProt P19525) |  |  | baseline: vehicle | 0.063 log2 |

Mixed results
NR3C1: Glucocorticoid receptor (NR3C1, Homo sapiens, UniProt P04150)
| SMILES | tested on | test | test system | conditions | how to read | endpoint | result |
| --- | --- | --- | --- | --- | --- | --- | --- |
| COc1cc(CC(=O)NCC(NC(=O)C(CCCNC(=O)c2cccc(I)c2)NC(=O)C(Cc2ccc(C(F)(F)P(=O)(O)O)cc2)NC(=O)c2ccc(C)c(Br)c2)C(N)=O)ccc1O (stereo not shown) | primary mouse hepatocytes | Western blot |  | 200 nM, added: insulin 5 nM, 5 min | baseline: insulin alone | Foxo1 Ser253 phosphorylation | 2.9 fold |
| C[C@@]12CC[C@H](O[C@@H]3O[C@H](CO)[C@@H](O)[C@H](O)[C@@H]3O)C[C@@H]1CC[C@H]1[C@H]2CC[C@@]2(C)[C@@H](C3=CCOC3=O)CC[C@]12O | NR3C1 | nuclear translocation, agonist, enzyme fragment complementation |  |  |  | EC50 | > 9 µM |
| CC#C/C(=N\OC[C@H]1COCCN1)c1ccc2ncnc(Nc3ccc(OCc4cccc(F)c4)c(Cl)c3)c2c1 | ABL1 (Homo sapiens, UniProt P00519) | kinase activity |  | 10 µM |  | inhibition | 36.6% |
| CN(C)CCC(=O)[C@@]1(O)CC[C@H]2[C@H]3CC=C4C[C@@H](O)CC[C@]4(C)[C@H]3CC[C@]21C | NR3C1 | nuclear translocation, agonist, enzyme fragment complementation |  |  |  | EC50 | > 9 µM |
| CCN1CCN(Cc2ccc(NC(=O)c3ccc(C)c(Oc4ncnc5cc(OC)c(OC)cc45)c3)cc2C(F)(F)F)CC1 | FGR (Homo sapiens, UniProt P09769) | autophosphorylation, immunoblot, item: activation loop phosphotyrosine | TF-1 transduced with FGR | 6 h |  | complete inhibition concentration | > 10 nM |

Some of these lines once more (block 1):
| target | test | test system | how to read | log2 fold change |
| --- | --- | --- | --- | --- |
| Interferon-induced, double-stranded RNA-activated protein kinase, with CDC37 (EIF2AK2, Homo sapiens, UniProt P19525) |  |  | baseline: vehicle | 0.063 log2 |
